Measurements from different studies.
Each numbered part is a random draw from the data of one study; scales do not carry over between parts.
UniProt P49759, sequence (whole entry, looked up): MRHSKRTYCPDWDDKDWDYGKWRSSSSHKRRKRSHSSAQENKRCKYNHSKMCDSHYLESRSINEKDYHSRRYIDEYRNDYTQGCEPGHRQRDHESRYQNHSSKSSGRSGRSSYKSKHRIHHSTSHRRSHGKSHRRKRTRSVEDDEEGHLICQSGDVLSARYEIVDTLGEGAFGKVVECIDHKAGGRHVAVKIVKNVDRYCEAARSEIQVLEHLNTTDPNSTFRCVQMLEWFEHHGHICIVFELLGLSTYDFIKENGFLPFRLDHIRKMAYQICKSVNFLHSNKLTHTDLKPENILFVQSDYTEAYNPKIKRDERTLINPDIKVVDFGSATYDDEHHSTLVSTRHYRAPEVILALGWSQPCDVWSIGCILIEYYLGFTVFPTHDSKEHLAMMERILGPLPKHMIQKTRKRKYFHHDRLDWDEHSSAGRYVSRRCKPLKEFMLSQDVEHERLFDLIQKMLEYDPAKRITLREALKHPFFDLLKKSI

Sample 1 — method: RNAcompete; molecule type: RNA; medium: in vitro; tested at: 20 nM; notes: 7-mer, probes averaged, single round; baseline: mean of 7-mers; reading: higher = stronger binding
Target: PABPC1L2, full length, GST fusion (mouse, UniProt A0ABA7IW68)
Target sequence (chain): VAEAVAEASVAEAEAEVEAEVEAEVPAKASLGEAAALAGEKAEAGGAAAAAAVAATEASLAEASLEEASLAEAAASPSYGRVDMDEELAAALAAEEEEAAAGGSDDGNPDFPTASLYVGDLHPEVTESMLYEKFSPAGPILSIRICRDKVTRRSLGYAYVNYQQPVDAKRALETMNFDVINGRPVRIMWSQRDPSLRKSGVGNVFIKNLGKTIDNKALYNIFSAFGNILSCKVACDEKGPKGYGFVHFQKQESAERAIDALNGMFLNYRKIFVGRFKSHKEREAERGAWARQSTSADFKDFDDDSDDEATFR
For `CCGCAUA`, the 7-mer Z-score was -0.148.
`CCUGUGA` gave a 7-mer Z-score of -0.226.
`UGCCCAA` gave a 7-mer Z-score of -0.115.
With `AGCUAAG` the 7-mer Z-score was -0.15.
For `AGCGCGA`, the 7-mer Z-score was -0.0373.
For `UGUGCUA`, the 7-mer Z-score was -0.0319.
`UGUAAGU` has a 7-mer Z-score of -0.144.
`GUGGCUC` gave a 7-mer Z-score of -0.0464.

Sample 2 — method: protein-binding microarray; molecule type: hairpin DNA; medium: in vitro; tested at: not given; baseline: not given; reading: higher = stronger binding; constant ends, left off below: GAGGCCG … CGGCCTCACACTC
Target: Homeobox protein Hox-B13, full length (HOXB13, Homo sapiens, UniProt Q92826, residues 1-284)
UniProt Q92826, sequence (whole entry, looked up): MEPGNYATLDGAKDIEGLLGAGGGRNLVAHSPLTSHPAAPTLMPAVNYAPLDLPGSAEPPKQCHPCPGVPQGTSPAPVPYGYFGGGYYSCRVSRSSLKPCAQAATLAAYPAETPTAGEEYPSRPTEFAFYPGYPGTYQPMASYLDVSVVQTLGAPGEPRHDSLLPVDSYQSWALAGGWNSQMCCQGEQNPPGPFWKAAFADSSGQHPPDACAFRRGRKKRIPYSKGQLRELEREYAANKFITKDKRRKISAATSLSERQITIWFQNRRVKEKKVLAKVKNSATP
Notes: whole hairpin DNA, median over replicate spots
With `TTTCGTTGGGGCCTCCTGGCCCCAACGAAA (5mC at 11)` the median fluorescence was 3970 a.u.
`TTTTATCGGGGCCTCCTGGCCCCGATAAAA` gave a median fluorescence of 4340 a.u.
`TTTCGCGAGGGCCTCCTGGCCCTCGCGAAA` gave a median fluorescence of 4070 a.u.
`CTTTACGAGGGCCTCCTGGCCCTCGTAAAG` has a median fluorescence of 5040 a.u.
`TTTTCTTGGGGCCTCCTGGCCCCAAGAAAA` gave a median fluorescence of 3700 a.u.
With `TCGTACGAGGGCCTCCTGGCCCTCGTACGA (5mC at 9 35)` the median fluorescence was 3910 a.u.
For `CGTTACGAGGGCCTCCTGGCCCTCGTAACG (5mC at 8)`, the median fluorescence was 4520 a.u.
With `TTTTCGTGGGGCCTCCTGGCCCCACGAAAA (5mC at 32)` the median fluorescence was 3990 a.u.

Sample 3 — method: Sort-seq; refers to: YFP reporter; medium: E. coli; notes: PhoQ-PhoP variant library; together with: 10 µM Mg2+; baseline: high Mg2+ state; reading: higher = stronger signaling
Substance: PhoQ, residues 284 288 289 292 302 303 NLCILV
PhoP, residues 12 14 15 18 19 LFHKL (Escherichia coli, UniProt P23836) — fold induction: 0.442.
PhoP, residues 12 14 15 18 19 QQAYL (Escherichia coli, UniProt P23836) — fold induction: 12.2.
The fold induction was 4.05 (PhoP, residues 12 14 15 18 19 GMGLL (Escherichia coli, UniProt P23836)).

Further values, each from its own experiment
The remaining activity of `CCCC(=O)Oc1ccc2[nH]c(C(=O)c3cc4ccccc4[nH]3)cc2c1` is reported as 99.3% (Dual specificity protein kinase CLK1 (CLK1, Homo sapiens, UniProt P49759); enzyme activity, inhibitor; 0.5 µM; baseline: control).

A few entries again (sample 2):
`TTTCGCGAGGGCCTCCTGGCCCTCGCGAAA` gave a median fluorescence of 4070 a.u.
For `CGTTACGAGGGCCTCCTGGCCCTCGTAACG (5mC at 8)`, the median fluorescence was 4520 a.u.
